Measured values collected from several papers.
± marks the error that the study gave.
FGFR1: Fibroblast growth factor receptor 1 (FGFR1, Homo sapiens, UniProt P11362)
Chain of UniProt P11362 (whole entry, looked up): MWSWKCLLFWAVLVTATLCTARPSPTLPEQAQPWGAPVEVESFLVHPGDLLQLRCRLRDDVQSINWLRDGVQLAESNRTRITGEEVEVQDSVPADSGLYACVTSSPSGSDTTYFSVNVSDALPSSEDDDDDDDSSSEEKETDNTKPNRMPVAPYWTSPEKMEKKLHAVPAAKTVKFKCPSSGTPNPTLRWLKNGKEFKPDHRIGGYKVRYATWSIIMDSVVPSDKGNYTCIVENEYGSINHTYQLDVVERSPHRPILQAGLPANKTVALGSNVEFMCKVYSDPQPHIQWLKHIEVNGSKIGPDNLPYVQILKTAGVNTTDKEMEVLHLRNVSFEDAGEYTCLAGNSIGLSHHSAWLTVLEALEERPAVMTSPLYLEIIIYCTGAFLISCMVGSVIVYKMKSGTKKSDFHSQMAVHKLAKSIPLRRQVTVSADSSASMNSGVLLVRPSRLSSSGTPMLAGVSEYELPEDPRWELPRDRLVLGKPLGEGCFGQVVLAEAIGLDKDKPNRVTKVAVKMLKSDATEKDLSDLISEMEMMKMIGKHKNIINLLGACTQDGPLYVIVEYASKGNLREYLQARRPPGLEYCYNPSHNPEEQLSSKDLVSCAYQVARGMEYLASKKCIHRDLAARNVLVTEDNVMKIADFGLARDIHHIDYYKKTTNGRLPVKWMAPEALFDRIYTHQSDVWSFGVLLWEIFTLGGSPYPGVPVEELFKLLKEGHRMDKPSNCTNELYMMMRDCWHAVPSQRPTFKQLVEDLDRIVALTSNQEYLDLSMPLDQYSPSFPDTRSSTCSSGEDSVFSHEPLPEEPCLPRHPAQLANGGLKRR
Chain of UniProt P07237 (whole entry, looked up): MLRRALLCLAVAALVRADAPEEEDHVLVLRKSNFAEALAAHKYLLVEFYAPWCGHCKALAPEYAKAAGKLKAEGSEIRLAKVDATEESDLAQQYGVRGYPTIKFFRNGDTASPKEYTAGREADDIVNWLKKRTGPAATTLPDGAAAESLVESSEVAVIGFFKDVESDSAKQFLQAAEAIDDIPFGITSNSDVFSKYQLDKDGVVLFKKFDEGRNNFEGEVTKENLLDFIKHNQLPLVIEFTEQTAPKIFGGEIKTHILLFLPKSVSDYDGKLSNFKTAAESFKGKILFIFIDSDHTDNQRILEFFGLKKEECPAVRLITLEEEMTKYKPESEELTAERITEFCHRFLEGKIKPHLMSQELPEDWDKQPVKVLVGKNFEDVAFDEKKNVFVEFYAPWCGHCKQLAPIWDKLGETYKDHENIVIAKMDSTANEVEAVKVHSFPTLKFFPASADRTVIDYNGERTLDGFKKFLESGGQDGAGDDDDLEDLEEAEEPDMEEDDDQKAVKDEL
Chain of UniProt Q9GZX7 (whole entry, looked up): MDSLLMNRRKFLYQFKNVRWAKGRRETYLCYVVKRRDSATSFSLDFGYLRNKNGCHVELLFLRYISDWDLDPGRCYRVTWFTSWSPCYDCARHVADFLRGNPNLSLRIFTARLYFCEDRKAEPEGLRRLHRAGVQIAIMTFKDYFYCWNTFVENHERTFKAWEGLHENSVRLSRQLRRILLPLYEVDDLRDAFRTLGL
Chain of UniProt P00747 (whole entry, looked up): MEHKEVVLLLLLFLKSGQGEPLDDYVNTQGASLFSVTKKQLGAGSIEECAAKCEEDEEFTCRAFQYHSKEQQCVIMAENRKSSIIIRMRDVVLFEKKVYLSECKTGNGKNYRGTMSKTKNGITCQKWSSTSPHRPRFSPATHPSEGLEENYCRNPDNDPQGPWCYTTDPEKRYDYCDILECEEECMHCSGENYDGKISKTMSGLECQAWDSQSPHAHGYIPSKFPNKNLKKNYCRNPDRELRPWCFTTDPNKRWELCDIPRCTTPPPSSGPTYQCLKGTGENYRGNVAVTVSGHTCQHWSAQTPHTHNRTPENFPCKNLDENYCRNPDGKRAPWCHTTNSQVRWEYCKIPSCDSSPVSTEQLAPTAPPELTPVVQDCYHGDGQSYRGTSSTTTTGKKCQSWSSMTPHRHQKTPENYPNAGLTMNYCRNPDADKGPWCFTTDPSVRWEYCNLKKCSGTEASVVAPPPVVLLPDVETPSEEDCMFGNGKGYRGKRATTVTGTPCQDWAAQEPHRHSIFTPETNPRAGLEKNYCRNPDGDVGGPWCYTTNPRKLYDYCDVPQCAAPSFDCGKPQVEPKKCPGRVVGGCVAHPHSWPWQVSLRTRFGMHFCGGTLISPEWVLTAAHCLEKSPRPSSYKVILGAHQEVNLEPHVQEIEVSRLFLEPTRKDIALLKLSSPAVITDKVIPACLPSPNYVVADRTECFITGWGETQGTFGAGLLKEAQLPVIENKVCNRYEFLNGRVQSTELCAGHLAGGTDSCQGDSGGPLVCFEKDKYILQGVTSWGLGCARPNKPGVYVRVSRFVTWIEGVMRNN
Chain of UniProt P48775 (whole entry, looked up): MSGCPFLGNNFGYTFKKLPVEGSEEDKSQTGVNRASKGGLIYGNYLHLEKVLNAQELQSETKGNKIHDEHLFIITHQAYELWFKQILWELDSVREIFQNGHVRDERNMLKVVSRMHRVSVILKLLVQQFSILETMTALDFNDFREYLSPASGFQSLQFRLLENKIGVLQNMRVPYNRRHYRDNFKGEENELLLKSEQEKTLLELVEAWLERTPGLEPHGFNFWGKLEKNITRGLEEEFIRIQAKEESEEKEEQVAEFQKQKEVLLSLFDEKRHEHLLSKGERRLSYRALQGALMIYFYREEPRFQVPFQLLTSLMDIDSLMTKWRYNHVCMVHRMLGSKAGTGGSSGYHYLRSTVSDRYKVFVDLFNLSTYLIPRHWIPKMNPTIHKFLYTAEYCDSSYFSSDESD
Chain of UniProt Q8VYV7 (whole entry, looked up): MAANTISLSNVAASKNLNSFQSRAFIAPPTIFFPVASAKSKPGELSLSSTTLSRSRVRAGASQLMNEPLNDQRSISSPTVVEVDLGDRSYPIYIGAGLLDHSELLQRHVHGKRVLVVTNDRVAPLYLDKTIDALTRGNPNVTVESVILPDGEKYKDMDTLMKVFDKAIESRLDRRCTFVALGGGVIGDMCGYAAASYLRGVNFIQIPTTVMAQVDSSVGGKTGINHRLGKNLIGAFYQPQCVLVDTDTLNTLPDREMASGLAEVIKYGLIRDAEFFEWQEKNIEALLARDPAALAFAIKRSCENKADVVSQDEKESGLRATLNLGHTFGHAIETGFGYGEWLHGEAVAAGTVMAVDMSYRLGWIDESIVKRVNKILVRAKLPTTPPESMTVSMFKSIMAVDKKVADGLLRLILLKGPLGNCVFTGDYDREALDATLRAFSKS
Chain of UniProt O15379 (whole entry, looked up): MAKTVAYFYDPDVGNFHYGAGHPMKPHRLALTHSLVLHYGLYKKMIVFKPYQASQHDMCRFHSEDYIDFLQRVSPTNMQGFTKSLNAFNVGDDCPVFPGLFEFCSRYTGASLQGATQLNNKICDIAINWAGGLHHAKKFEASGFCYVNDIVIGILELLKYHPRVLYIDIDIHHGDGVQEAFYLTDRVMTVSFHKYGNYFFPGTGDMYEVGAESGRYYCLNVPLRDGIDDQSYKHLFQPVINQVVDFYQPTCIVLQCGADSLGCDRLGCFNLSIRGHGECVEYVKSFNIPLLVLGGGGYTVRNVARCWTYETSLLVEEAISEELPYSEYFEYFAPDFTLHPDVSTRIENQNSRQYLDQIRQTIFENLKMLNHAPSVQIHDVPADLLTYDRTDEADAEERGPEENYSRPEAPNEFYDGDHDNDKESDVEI
Chain of UniProt Q86TM6 (whole entry, looked up): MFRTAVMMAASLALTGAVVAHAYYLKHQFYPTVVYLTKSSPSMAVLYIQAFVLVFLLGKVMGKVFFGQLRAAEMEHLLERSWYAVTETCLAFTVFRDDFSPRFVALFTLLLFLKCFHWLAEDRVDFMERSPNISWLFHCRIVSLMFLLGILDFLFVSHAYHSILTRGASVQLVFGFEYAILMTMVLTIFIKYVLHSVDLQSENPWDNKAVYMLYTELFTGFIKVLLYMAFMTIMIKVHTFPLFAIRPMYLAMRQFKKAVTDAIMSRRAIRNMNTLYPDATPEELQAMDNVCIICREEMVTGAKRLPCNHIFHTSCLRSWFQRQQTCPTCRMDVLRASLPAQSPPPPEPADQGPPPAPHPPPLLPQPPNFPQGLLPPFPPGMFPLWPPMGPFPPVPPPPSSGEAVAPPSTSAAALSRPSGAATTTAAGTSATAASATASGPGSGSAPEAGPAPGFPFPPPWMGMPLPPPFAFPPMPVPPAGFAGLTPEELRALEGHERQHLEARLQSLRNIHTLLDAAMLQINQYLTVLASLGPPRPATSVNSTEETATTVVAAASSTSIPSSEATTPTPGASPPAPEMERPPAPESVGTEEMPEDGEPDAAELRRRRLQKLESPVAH
Chain of UniProt P62937 (whole entry, looked up): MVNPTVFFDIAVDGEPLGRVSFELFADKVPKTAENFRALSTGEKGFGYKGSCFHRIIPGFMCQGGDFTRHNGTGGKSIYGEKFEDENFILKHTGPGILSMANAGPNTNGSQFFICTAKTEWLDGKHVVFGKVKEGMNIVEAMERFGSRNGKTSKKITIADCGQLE
Chain of UniProt P49682 (whole entry, looked up): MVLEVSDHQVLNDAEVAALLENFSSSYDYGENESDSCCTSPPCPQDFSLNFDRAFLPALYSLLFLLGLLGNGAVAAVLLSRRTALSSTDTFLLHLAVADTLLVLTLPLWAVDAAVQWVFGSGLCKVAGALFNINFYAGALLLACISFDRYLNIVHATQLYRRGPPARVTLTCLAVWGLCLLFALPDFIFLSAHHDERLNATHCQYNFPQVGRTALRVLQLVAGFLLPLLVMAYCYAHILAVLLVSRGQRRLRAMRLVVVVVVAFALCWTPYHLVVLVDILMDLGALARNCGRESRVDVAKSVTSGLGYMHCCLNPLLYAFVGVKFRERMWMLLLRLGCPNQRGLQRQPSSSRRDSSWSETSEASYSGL

Structure (SMILES) | target | test | test system | conditions | IC50 [µM]
O=C1Nc2ccc(OCC3CCNCC3)cc2C(=O)N(Cc2ccc(-c3ccccc3)cc2)[C@@H]1CC1CCCCC1 | SYVN1 (Homo sapiens, UniProt Q86TM6) | enzyme activity, inhibitor, radiometric |  |  | 20
CN(C(=O)c1ccn2ncc(-c3ccc(C(N)=O)cc3)c2c1)c1ccc(C#N)cn1 | SYK (Homo sapiens, UniProt P43405) | enzyme activity, inhibitor |  |  | > 10
COc1cc2nccc(Oc3ccc(NC(=S)N(C)C)c(Cl)c3)c2cc1C(N)=O | FGFR1 |  |  |  | 0.063
O=C(Nc1ccc(S(=O)(=O)Nc2nccs2)cc1)c1cc(-c2ccco2)nc2ccccc12 | Kpna2, with ChREBP NLS peptide (Mus musculus, UniProt P52293) | NLS peptide binding, fluorescence polarization |  | high-affinity site, with: ChREBP NLS peptide | 0.7
N=C(N)SCc1ccc(Cl)cc1 | TDO2 (Homo sapiens, UniProt P48775) |  |  | with: L-tryptophan 2 mM | > 30
O=C(CN1CCOc2ccccc2C1)c1ccc2[nH]c(=O)[nH]c2c1 | Single-stranded DNA cytosine deaminase (AICDA, Homo sapiens, UniProt Q9GZX7) | deaminase activity, inhibitor, alkaline cleavage | 293T lysate, untagged | pH 7.2, 37 °C | 130
O=C(Nc1ccc(C(=O)Nc2ccc(C(=O)Nc3ccc(S(=O)(=O)O)c4cc(S(=O)(=O)O)cc(S(=O)(=O)O)c34)cc2)cc1)Nc1ccc(C(=O)Nc2ccc(C(=O)Nc3ccc(S(=O)(=O)O)c4cc(S(=O)(=O)O)cc(S(=O)(=O)O)c34)cc2)cc1 | Plasminogen (PLG, Homo sapiens, UniProt P00747) | enzyme activity, inhibitor, absorbance |  | pH 7.4 | > 180
COCCNC(=O)c1cc2c(Oc3ccc(NC(=S)NC4CC4)c(Cl)c3)ccnc2cc1OC | FGFR1 |  |  |  | 4.24
CCCCc1ccc(S(=O)(=O)N2CC2C(=O)N(C)C)cc1 (centres unmarked) | P4HB (Homo sapiens, UniProt P07237) | enzyme activity, inhibitor, absorbance |  | pH 7.6 | 160
Cc1noc(NS(=O)(=O)c2ccc(NC(=O)c3ccnc(-c4cccc(Br)c4)c3)cc2)c1C | PPIA (Homo sapiens, UniProt P62937) | enzyme activity, inhibitor |  |  | 2.48
COc1ccccc1CN1CCN2C(C)CCN([C@H](CCCCN)C(=O)NCC(c3ccccc3)c3ccccc3)C(=O)C2C1 (some centres unmarked) | CXCR3 (Homo sapiens, UniProt P49682) |  |  |  | 0.003
O=C(CCCCCCNCc1ccc(-c2ccccc2)s1)NO | HDAC3 (Homo sapiens, UniProt O15379) | enzyme activity, inhibitor, fluorescence |  |  | 0.038
CC(C)(O)C(=O)C(=O)Nc1cccc(C(=O)N2CCC(c3cccc(CN)c3)CC2)c1 | Tryptase beta-1 (Homo sapiens, UniProt Q15661) | enzyme activity, inhibitor |  | tryptase 100 pM, with: AMC substrate | 0.0207
CNC(=O)[C@@H]1Cc2c([nH]c3ccccc23)[C@@H](c2ccc(C)cc2Cl)N1 | MEP cytidylyltransferase IspD (Plasmodium falciparum, UniProt Q8I273) | enzyme activity, inhibitor, fluorimetric pyrophosphate |  | 60 nM enzyme | 0.36 ± 0.04
COc1ccc(S(=O)(=O)NCc2c[nH]nc2-c2cccs2)cc1 | Myosin A, motor domain (Cryptosporidium parvum, UniProt Q5CY39) | actin-activated ATPase |  | upper bound, enzyme-limited | < 0.1
C[C@H](O)C[C@@H](O)[C@H](O)C(=O)CO | 3-dehydroquinate synthase, chloroplastic (DHQS, Arabidopsis thaliana, UniProt Q8VYV7) | enzyme activity, inhibitor, malachite green phosphate release |  |  | 118
Cc1ccc(CNC(=O)[C@H](CCc2ccccc2)NC(=O)[C@H](CCc2ccccc2)NC(=O)[C@@H](N)Cc2ccncc2)cc1 | 20S proteasome (Plasmodium falciparum, UniProt A0A5K1K7U1+Q8IJT1) | β5 activity, inhibitor |  | with: Suc-LLVY-AMC, PA28α-activated | 0.00924

A few entries again:
Structure (SMILES) | target | test | test system | conditions | IC50 [µM]
O=C(CN1CCOc2ccccc2C1)c1ccc2[nH]c(=O)[nH]c2c1 | Single-stranded DNA cytosine deaminase (AICDA, Homo sapiens, UniProt Q9GZX7) | deaminase activity, inhibitor, alkaline cleavage | 293T lysate, untagged | pH 7.2, 37 °C | 130
O=C(CCCCCCNCc1ccc(-c2ccccc2)s1)NO | HDAC3 (Homo sapiens, UniProt O15379) | enzyme activity, inhibitor, fluorescence |  |  | 0.038
